Measured values from different studies.
Protocols differ between the studies behind these lines. Values joined by “and” are separate records of one study, mostly repeats; a detail may differ.
Organism: Plasmodium falciparum

The selectivity index of CCCCN1C(=O)c2ccc3c4c(ccc(c24)C1=O)C(=O)N(CCNc1c2ccc(Cl)cc2nc2ccc(OC)cc12)C3=O is reported as > 5.5 and > 5.48 (NIH3T3, 3D7; relative to: CC50 over IC50).
CN1CCC[C@@H]1C(=O)N[C@@H](Cc1ccc(-c2ccccc2)cc1)B(O)O has a selectivity index of 125 fold (HepG2, 3D7; 72 h; relative to: HepG2 over P. falciparum).
With N#Cc1c(-c2ccco2)[n+]([O-])c2ccc(C(F)(F)F)cc2[n+]1[O-] the selectivity index was 5.66 (3D7 chloroquine-sensitive; relative to: KB IC50 over 3D7 IC50).
For CC1CCC2C(C)C(CCCN=[N+]=[N-])OC3OC4(C)CCC1C32OO4 (stereo not drawn), the selectivity index was greater than 1620 (W2; 72 h; relative to: HepG2 over blood-stage parasites).
OCCCCCCCCCCCCOCCCc1cccnc1 has a selectivity index of 2.2 (W2 chloroquine-resistant; relative to: IC50 WI-26VA4 over IC50 W2).
N#Cc1c(-c2ccco2)[n+]([O-])c2ccc(F)cc2[n+]1[O-] gave a selectivity index of 7.26 (3D7 chloroquine-sensitive; relative to: KB IC50 over 3D7 IC50).
For c1cncc(CCCOCCCCCCCCCCOC2CCCCO2)c1 (stereo not drawn), the selectivity index was 0.4 (W2 chloroquine-resistant; relative to: IC50 WI-26VA4 over IC50 W2).
With CCC1=C(C)C(=CNC23CC4CC(CC(C4)C2)C3)N=C1c1ccc[nH]1 the selectivity index was 600 (HepG2, D6; relative to: HepG2 IC50 over D6 IC50).
For Cc1ccc2c(c1)[n+]([O-])c(C#N)c(-c1ccco1)[n+]2[O-], the selectivity index was 7.82 (K1 chloroquine-resistant; relative to: KB IC50 over K1 IC50).
With C[C@H]1[C@@H](CCCOc2ccc(OCCC[C@H]3O[C@@H]4O[C@@]5(C)CC[C@H]6[C@H](C)CC[C@@H]([C@H]3C)[C@@]46O5)cc2)O[C@@H]2O[C@@]3(C)CC[C@H]4[C@H](C)CC[C@@H]1[C@@]24OO3 the selectivity index was 1.86 (W2; 72 h; relative to: HepG2 over blood-stage parasites).
For CC1=CC(c2ccc[nH]2)=NC1=CNC12CC3CC(CC(C3)C1)C2, the selectivity index was 5310 (HepG2, D6; relative to: HepG2 IC50 over D6 IC50).
C[C@H]1[C@@H](CCCOc2cccc(OCCC[C@H]3O[C@@H]4O[C@@]5(C)CC[C@H]6[C@H](C)CC[C@@H]([C@H]3C)[C@@]46O5)c2)O[C@@H]2O[C@@]3(C)CC[C@H]4[C@H](C)CC[C@@H]1[C@@]24OO3 has a selectivity index of 1.86 (W2; 72 h; relative to: HepG2 over blood-stage parasites).
With CC(C)C1=CC(=CNC23CC4CC(CC(C4)C2)C3)N=C1c1ccc[nH]1 the selectivity index was 711 (HepG2, D6; relative to: HepG2 IC50 over D6 IC50).
N#Cc1c(-c2ccco2)[n+]([O-])c2ccc(Cl)cc2[n+]1[O-] has a selectivity index of 10.2 (K1 chloroquine-resistant; relative to: KB IC50 over K1 IC50).
For Cc1ccc(C(C)C)cc1.[Cl][Ru+].[O-]c1ccccc1C=NCCNc1ccnc2cc(Cl)ccc12, the selectivity index was 1270 (MTT; CHO, D10; relative to: IC50 CHO over IC50 D10).
With COc1ccc2c(c1)[n+]([O-])c(C#N)c(-c1ccco1)[n+]2[O-] the selectivity index was 5.03 (3D7 chloroquine-sensitive; relative to: KB IC50 over 3D7 IC50).
COC1=CC(c2ccc[nH]2)=NC1=Cc1[nH]c(Cc2ccc(Cl)cc2)cc1Cc1ccc(Cl)cc1 has a selectivity index of greater than 41000 (HepG2, D6; relative to: HepG2 IC50 over D6 IC50).
The selectivity index of C#CCOCCCC1OC2OC3(C)CCC4C(C)CCC(C1C)C24OO3 (stereo not drawn) is reported as greater than 16600 (W2; 72 h; relative to: HepG2 over blood-stage parasites).
The selectivity index of CCC1=C(C)C(c2ccc[nH]2)=NC1=CNC12CC3CC(CC(C3)C1)C2 is reported as 237 (HepG2, D6; relative to: HepG2 IC50 over D6 IC50).
OCCCCCCCCCCOCCCc1cccnc1 gave a selectivity index of 6.7 (W2 chloroquine-resistant; relative to: IC50 WI-26VA4 over IC50 W2).
For COC1=CC(c2ccc[nH]2)=NC1=CNC1CCCCCC1, the selectivity index was 439 (HepG2, D6; relative to: HepG2 IC50 over D6 IC50).
N#Cc1c(-c2ccco2)[n+]([O-])c2ccccc2[n+]1[O-] gave a selectivity index of 8.69 (3D7 chloroquine-sensitive; relative to: KB IC50 over 3D7 IC50).
With CCCCCCN=Cc1[nH]c(-c2ccc[nH]2)cc1OC the selectivity index was 785 (HepG2, D6; relative to: HepG2 IC50 over D6 IC50).
With c1ccc(CCCNc2ncnc3cc(OCC4CCN(CCNc5ccnc6ccccc56)CC4)ccc23)cc1 the selectivity index was 20 (HepG2, NF54; relative to: HepG2 cytotoxicity over P. falciparum activity).

A few entries again:
With N#Cc1c(-c2ccco2)[n+]([O-])c2ccc(C(F)(F)F)cc2[n+]1[O-] the selectivity index was 5.66 (3D7 chloroquine-sensitive; relative to: KB IC50 over 3D7 IC50).
C[C@H]1[C@@H](CCCOc2cccc(OCCC[C@H]3O[C@@H]4O[C@@]5(C)CC[C@H]6[C@H](C)CC[C@@H]([C@H]3C)[C@@]46O5)c2)O[C@@H]2O[C@@]3(C)CC[C@H]4[C@H](C)CC[C@@H]1[C@@]24OO3 has a selectivity index of 1.86 (W2; 72 h; relative to: HepG2 over blood-stage parasites).
The selectivity index of CCCCN1C(=O)c2ccc3c4c(ccc(c24)C1=O)C(=O)N(CCNc1c2ccc(Cl)cc2nc2ccc(OC)cc12)C3=O is reported as > 5.5 and > 5.48 (NIH3T3, 3D7; relative to: CC50 over IC50).
With COc1ccc2c(c1)[n+]([O-])c(C#N)c(-c1ccco1)[n+]2[O-] the selectivity index was 5.03 (3D7 chloroquine-sensitive; relative to: KB IC50 over 3D7 IC50).
